Measurements gathered from unrelated publications.
A part holds a random share of what one study measured. Changes are numbered by the printed parent chain.

Block 1 — technique: DHFR PCA, deep sequencing; matrix: yeast; added: (+)-ABA 58 µM; relative to: wild-type fitted maximum; reading: higher = stronger binding
Target: ABI1, truncated, D143A, DHFR fusion (Arabidopsis thaliana)
Setting: methotrexate growth selection, single substitutions
Starting sequence: PYL1, truncated, DHFR fusion (Arabidopsis thaliana); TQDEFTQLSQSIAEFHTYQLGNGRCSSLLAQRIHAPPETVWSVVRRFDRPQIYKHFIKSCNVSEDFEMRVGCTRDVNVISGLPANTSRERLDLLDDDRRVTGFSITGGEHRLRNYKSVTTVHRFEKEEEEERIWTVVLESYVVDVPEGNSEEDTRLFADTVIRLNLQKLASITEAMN; partner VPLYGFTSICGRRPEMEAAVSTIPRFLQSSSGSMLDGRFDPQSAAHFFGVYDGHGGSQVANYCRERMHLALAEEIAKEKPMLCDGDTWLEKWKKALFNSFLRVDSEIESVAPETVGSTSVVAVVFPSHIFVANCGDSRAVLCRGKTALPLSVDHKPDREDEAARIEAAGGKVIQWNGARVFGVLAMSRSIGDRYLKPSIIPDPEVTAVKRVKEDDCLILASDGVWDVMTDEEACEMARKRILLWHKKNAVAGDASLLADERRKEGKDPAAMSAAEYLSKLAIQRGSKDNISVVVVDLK
`Q2C`: “relative binding score” 91%.
`D159Q`: “relative binding score” 46.5%.
For `V70L`, “relative binding score” read 68.2%.
`A158N` — result for “relative binding score”: 45.3%.
Under “relative binding score”, `N165H` is recorded as 30.1%.
`A13L`: “relative binding score” 87.3%.
Under “relative binding score”, `I172L` is recorded as 79%.
Under “relative binding score”, `D95P` is recorded as -6.46%.
Under “relative binding score”, `F157E` is recorded as 1.55%.
Under “relative binding score”, `S42H` is recorded as 80.4%.
Under “relative binding score”, `V143G` is recorded as -0.668%.
`P83E` — result for “relative binding score”: 39.4%.
For `R132L`, “relative binding score” read 91%.
`M176R` — result for “relative binding score”: 87.2%.
`V78E`: “relative binding score” 7.89%.
`N22F` — result for “relative binding score”: 81.7%.
`S87R` — result for “relative binding score”: 10.4%.

Block 2 — technique: protein-binding microarray; molecule type: double-stranded DNA, one strand shown; matrix: in vitro; tested at: 250 nM; setting: 60-bp whole probe; added: salmon DNA 0.4 mg/ml; relative to: random background probes; reading: higher = stronger binding; all sequences stand within: GCCTAGCAC … GTCTTGATTCGCTTGACGCTGCTG
Target: Interferon regulatory factor 7, full length, phosphomimetic (IRF7, Homo sapiens, UniProt Q92985, residues 1-503, S101K/S471D/S472D/S475D/S476D/S477D/S483D/S484D/S487D)
Target sequence (chain): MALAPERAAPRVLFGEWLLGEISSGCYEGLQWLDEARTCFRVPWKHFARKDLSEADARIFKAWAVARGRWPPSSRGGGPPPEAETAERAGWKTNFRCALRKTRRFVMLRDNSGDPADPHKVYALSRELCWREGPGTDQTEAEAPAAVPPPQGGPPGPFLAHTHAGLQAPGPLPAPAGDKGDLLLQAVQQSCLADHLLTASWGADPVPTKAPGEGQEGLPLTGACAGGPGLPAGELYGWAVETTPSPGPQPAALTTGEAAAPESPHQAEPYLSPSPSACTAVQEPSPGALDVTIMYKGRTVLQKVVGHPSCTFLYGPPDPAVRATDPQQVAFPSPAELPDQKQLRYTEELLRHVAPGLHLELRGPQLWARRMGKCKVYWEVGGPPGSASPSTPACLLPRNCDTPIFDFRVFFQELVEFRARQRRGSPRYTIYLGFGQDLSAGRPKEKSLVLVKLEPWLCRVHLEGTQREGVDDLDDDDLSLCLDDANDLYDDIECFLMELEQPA
The log fluorescence of `CAAGGCAAGAAACAAACAACGTGCTAG` is reported as 0.0909 z-score.
`ATAGGACTGGACTTTCGGTTAGTGCTA` has a log fluorescence of 0.613 z-score.
The log fluorescence of `TGTGCATGTGTGTTTTCTGCGTGCTAG` is reported as -0.609 z-score.
`GACGGAGTGGACACTGGGGACGTGCTA` gave a log fluorescence of -0.718 z-score.
`GACGATTTCTGGTTTCGAGACGTGCTA` gave a log fluorescence of 5.06 z-score.
`GACGGTATTGGTTTCGGGACGTGCTAG` gave a log fluorescence of 3.98 z-score.
For `ATGCTACAATAAGTGTTAGTGTGCTAG`, the log fluorescence was -0.369 z-score.
With `TATAGAGTAGTTTTTCAACCAGTGCTA` the log fluorescence was -0.588 z-score.
With `TCACCTTTGAAAGTTGTTACTGTGCTA` the log fluorescence was 0.371 z-score.
`TCAAGTCTTGTTTTACAACTGTGCTAG` has a log fluorescence of 2.46 z-score.
The log fluorescence of `TTGCTTTCCTTCTTGAACTCGTGCTAG` is reported as 1.68 z-score.
The log fluorescence of `TTAGGACTGGTGTATCGGTTAGTGCTA` is reported as -0.325 z-score.
For `TCACTTATCCCTAATCTCACTGTGCTA`, the log fluorescence was 0.779 z-score.
With `GACGGACTGCAACTGCTGACGTGCTAG` the log fluorescence was -0.992 z-score.
For `TTGGAACTGAGTCTCGATTAGTGCTAG`, the log fluorescence was 1.19 z-score.
With `GACGGACTGGACTTTAGGGACGTGCTA` the log fluorescence was -0.76 z-score.

Block 3 — technique: protein binding microarray; molecule type: double-stranded DNA, one strand shown; matrix: in vitro; tested at: not given; relative to: not given; reading: higher = stronger binding
Target: Histone acetyltransferase KAT6A, winged helix 2, GST fusion (KAT6A, Homo sapiens, UniProt Q92794, residues 85-181)
Setting: 8-mer, flanks averaged, mean of 2 arrays, mostly near background
Construct (chain): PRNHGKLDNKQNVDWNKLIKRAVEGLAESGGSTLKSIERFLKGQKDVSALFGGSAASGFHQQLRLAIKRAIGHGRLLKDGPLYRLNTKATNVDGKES
With `GCTTGCCA` the E-score was 0.0989.
With `TCGGGCCA` the E-score was 0.0591.
`ATTAAGAA` gave an E-score of 0.0657.
The E-score of `TACATACA` is reported as -0.024.
`AGAGAAAG` has an E-score of 0.0402.
`ACACCCCG` gave an E-score of -0.0815.
`CCCAAGGG` has an E-score of -0.0348.
`AACCGTAG` has an E-score of -0.196.
The E-score of `AACCGGAT` is reported as 0.0705.
`ACACAATA` has an E-score of -0.194.
`CAATTGTG` gave an E-score of -0.105.
`AAAAGCAA` gave an E-score of 0.118.
`AGATGCAC` gave an E-score of 0.0324.
`GATAGTCC` gave an E-score of -0.0846.
For `CAGGTCGG`, the E-score was 0.123.
With `GAGTAGGC` the E-score was -0.0353.
`CTATACGA` gave an E-score of -0.11.
The E-score of `AATGCGAA` is reported as 0.0919.
`AGAAGAGC` gave an E-score of 0.114.

Block 4 — technique: RNA Bind-n-Seq; molecule type: RNA; matrix: in vitro; tested at: 1 µM; setting: whole 134-nt RNA, ends assumed; added: 150 mM KCl; relative to: input library; reading: higher = stronger binding
Target: Ras GTPase-activating protein-binding protein 1, RRM domain (G3BP1, Homo sapiens, UniProt Q13283)
Chain of UniProt Q13283 (whole entry, looked up): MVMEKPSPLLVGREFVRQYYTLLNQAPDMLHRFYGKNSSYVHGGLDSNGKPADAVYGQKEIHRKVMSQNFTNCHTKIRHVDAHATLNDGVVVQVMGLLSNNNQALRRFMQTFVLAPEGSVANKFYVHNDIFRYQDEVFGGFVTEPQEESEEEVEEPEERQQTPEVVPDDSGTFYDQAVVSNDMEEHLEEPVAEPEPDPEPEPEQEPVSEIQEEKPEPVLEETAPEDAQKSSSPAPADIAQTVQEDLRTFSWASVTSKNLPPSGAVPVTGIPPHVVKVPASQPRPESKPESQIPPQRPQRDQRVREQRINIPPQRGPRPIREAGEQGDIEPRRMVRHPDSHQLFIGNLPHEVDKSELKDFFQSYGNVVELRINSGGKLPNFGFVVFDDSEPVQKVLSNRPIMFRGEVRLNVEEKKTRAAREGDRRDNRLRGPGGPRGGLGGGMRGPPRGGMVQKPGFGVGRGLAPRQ
With `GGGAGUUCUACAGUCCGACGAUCUAACUUUAGAGGAGGAUCUGAUGGAAAUGGCAGUGGACGUGGAUUUGGGGAUGGCUAUAAUGGGUAUGGAGGAGGACCUGGAGGUGGCAAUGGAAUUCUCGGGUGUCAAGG` the log2 enrichment was -0.808.
`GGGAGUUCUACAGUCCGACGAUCUCCUGUGCUACACAUCGUAUGUACCGAAUCAAACCCCCCCAAAUUUUUUUAAAUUUAAAAAAGUAUUAUGUUACGCCGUUCGGAUCUGCAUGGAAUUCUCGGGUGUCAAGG` has a log2 enrichment of -0.356.
With `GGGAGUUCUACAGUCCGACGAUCACCAUGCAGGUGGGCAUCUUUGGGAAGUGGGGCAAGGGGGGGAUAGGGAGGGGGGUAACACUUUGGGAACAGGUGGUCCCAGGUCGUGUCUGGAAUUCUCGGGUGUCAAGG` the log2 enrichment was 0.982.
The log2 enrichment of `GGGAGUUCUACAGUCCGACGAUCUCCUGUGCUACACAUCGUAUGUACCGAAUCGGGGAAAAAAGGAAAAAAGGGGAAAAAAGGAAAGUAUUAUGUUACGCCGUUCGGAUCUGCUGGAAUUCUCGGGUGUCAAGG` is reported as 0.0415.
With `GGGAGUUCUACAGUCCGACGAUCCUCAAGUCCUGUGCUACACAUCGUAUGUACCGAAUCGGGGCGGGCGGGCGGGGAAAGUAUUAUGUUACGCCGUUCGGAUCUGCACUUCCAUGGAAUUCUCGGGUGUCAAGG` the log2 enrichment was 0.349.
`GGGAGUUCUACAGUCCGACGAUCUGGCCCUGGUGGCAUGCGGGGAGGAAGAGGUGGCCUCAUGGAUCGUGGUGGUCCCGGUGGAAUGUUCAGAGGUGGCCGUGGUCGAGACAGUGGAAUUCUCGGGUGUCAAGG` gave a log2 enrichment of 2.01.
For `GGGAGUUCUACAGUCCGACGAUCUUUUAUUCUUCCAUCUUUUCCCACAGGUGGCAGCUGCCAACAAGAAGCAUUAGAACAAACCAUGCUGGGUUAAUAAAUUGCCUCAUUCGUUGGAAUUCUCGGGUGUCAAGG`, the log2 enrichment was -0.185.
For `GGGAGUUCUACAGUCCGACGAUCAGUCCUGUGCUACACAUCGUAUGUACCGAAUCGGAAAAAAGGAAAAAAGGAAAAAAGGAAAGUAUUAUGUUACGCCGUUCGGAUCUGCACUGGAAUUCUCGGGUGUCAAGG`, the log2 enrichment was 0.0104.
With `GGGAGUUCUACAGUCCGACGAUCCAAGUCCUGUGCUACACAUCGUAUGUACCGAAUCGGUUUUUUUGGAAAAAGGUGGAAAGUAUUAUGUUACGCCGUUCGGAUCUGCACUUCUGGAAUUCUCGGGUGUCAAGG` the log2 enrichment was -0.426.
The log2 enrichment of `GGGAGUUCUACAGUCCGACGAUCAGAGAAUAAGAAUUCAGCUGACAGGAGGCCUCUAUCCUGUCCCUCCACCCCACCCUCCACCUCAAUCCCCUCCCAUCUUCCCCAGACCUAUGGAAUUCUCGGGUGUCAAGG` is reported as 0.0353.
